Measurements gathered from unrelated publications.
Each numbered part is a random draw from the data of one study; scales do not carry over between parts. “And” joins repeats or separate records; there may be more than shown.

Block 1
Species: CD-1 mouse, female
Sample: plasma
Route: intravenous
Dose: 1 mg/kg
SMILES | volume of distribution (steady state)
Cc1ccc(O)c(C)c1-c1cnc2[nH]c(-c3cnc(N4CC5(CC(CN6CCN(c7ccc(NC8CCC(=O)NC8=O)cc7F)CC6)C5)C4)nc3)cc2c1C#N (stereo not drawn) | 3.9 L/kg
Cc1ccc(O)c(C)c1-c1cnc2[nH]c(-c3cnc(N4CCC(CN5CCN(c6ccc(NC7CCC(=O)NC7=O)cc6F)CC5)CC4)nc3)cc2c1C#N (stereo not drawn) | 2.7 L/kg
Cc1ccc(O)c(C)c1-c1cnc2[nH]c(-c3cnc(N4CCC5(CC4)CC(CN4CCN(c6ccc(NC7CCC(=O)NC7=O)cc6F)CC4)C5)nc3)cc2c1C#N (stereo not drawn) | 3.7 L/kg
Cc1ccc(O)c(C)c1-c1cnc2[nH]c(-c3cnc(N4CCC5(CC4)CC(N4CCN(c6ccc(NC7CCC(=O)NC7=O)cc6F)CC4)CO5)nc3)cc2c1C#N (stereo not drawn) | 3.8 L/kg
Cc1ccc(O)c(C)c1-c1cnc2[nH]c(-c3cnc(N4CCC(CN5CCN(c6ccc7c(c6F)CN(C6CCC(=O)NC6=O)C7=O)CC5)CC4)nc3)cc2c1C#N (stereo not drawn) | 1.6 L/kg
Cc1ccc(O)c(C)c1-c1cnc2[nH]c(-c3cnc(N4CCC(CN5CCN(c6cc7c(cc6F)n(C6CCC(=O)NC6=O)c(=O)n7C)CC5)CC4)nc3)cc2c1C#N (stereo not drawn) | 1.8 L/kg

Block 2
Compound: Cc1ncsc1-c1ccc(C(CO)NC(=O)C2CC(O)CN2C(=O)C(NC(=O)c2ccc(COc3c(-c4c(C)c(F)cc5[nH]ncc45)c(C4CC4)cc4c(N5CC6CC5CN6)nc(OC5CCOCC5)nc34)cc2)C(C)C)cc1 (stereo not drawn)
Time: 6 days
cell line | read-out | method | tested at | viability
ASPC1 | cell growth or viability | ATP luminescence | 3 nM | 90.3% and 84.1% and 84.7% and 88.9% and 80.5% and 94.5%
AsPC-1 | – | CellTiter-Glo | 1 µM | 5.55% and 8.55% and 7.49%
ASPC1 | cell growth or viability | ATP luminescence | 3 µM | 4.83% and 3.58% and 3.83% and 4.56% and 5.77% and 5.14%
ASPC1 | cell growth or viability | ATP luminescence | 30 nM | 84.2% and 84% and 87.6% and 80.9% and 93.1% and 78.4%
ASPC1 | cell growth or viability | ATP luminescence | 0.3 µM | 36.4% and 24.7% and 39.5% and 24% and 21.8% and 27.1%
ASPC1 | cell growth or viability | ATP luminescence | 10 µM | 6.26% and 4.66% and 4.6% and 3.98% and 4.08% and 5.45%

Block 3
SMILES: CCN1/C(=C/C=C2\CCCC(/C=C/C3=[N+](CC)c4ccccc4C3(C)C)=C2NCCCCCCCCN2CCC(Nc3nc4ccccc4n3Cc3ccc(F)cc3)CC2)C(C)(C)c2ccccc21
Cell line: U-87 MG
Tested at: concentration not given
Baseline: DMSO
measured | log2 fold change
ZBTB42 mRNA | -0.919
CHN1 mRNA | -1.19
NRM | -2.07
CDCA4 mRNA | -1.35
ADAMTS5 mRNA | 3.6
FSTL1 mRNA | -1.2
RPS6KA5 mRNA | 1.16
NAAA mRNA | -0.88
IL11 mRNA | 1.44
TNFAIP8L1 mRNA | -1.31
GTSE1 mRNA | -2.41
NAA38 mRNA | -1.08
STING1 mRNA | -1.56
RNF6 mRNA | 0.942
E2F2 mRNA | -2.54
AIM2 mRNA | -1.92

Block 4
Organism: Arabidopsis thaliana
Strain: Col-0
Tested at: 25 µg/mL
Setting: seed germination, single repetition
SMILES | hypocotyl length
Cc1ccc2c(c1)OC(O)(C(=O)O)C(=O)N2Cc1ccccc1 (stereo not drawn) | 1.8 cm and 1.82 cm and 1.84 cm and 1.83 cm
CN1C(=O)C(O)(C(=O)O)Oc2cc(F)ccc21 (stereo not drawn) | 1.85 cm and 1.78 cm and 1.75 cm
COc1ccc2c(c1)OC(O)(C(=O)O)C(=O)N2Cc1ccccc1 (stereo not drawn) | 1.64 cm and 1.63 cm and 1.76 cm and 1.65 cm and 1.53 cm
O=C(O)C1(O)Oc2ccccc2N(Cc2ccccc2)C1=O (stereo not drawn) | 1.46 cm and 1.47 cm and 1.48 cm and 1.52 cm and 1.53 cm
CC(C)(C)c1ccc(Oc2ccc3c(c2)OC(O)(C(=O)O)C(=O)N3Cc2ccccc2)cc1 (stereo not drawn) | 1.77 cm and 1.73 cm and 1.75 cm and 1.72 cm and 1.7 cm

A few entries again (block 3):
measured | log2 fold change
ADAMTS5 mRNA | 3.6
FSTL1 mRNA | -1.2
RPS6KA5 mRNA | 1.16
NAAA mRNA | -0.88
